# Assay results pooled from the literature.
# Numbered parts are unrelated; each lists some results of a single study.

# Block 1
# Target: Fragile X messenger ribonucleoprotein 1, C-terminal low-complexity region (Fmr1, Mus musculus, UniProt P35922)
# Method: RNA Bind-n-Seq
# Molecule type: RNA
# Matrix: in vitro
# Tested at: 200 nM
# Notes: whole 134-nt RNA, ends assumed
# Together with: 150 mM LiCl
# Relative to: input library
# Reading: higher = stronger binding
# Library: 7-deaza-guanosine replaces G
# All sequences stand within: GGGAGUUCUACAGUCCGACGAUC … UGGAAUUCUCGGGUGUCAAGG
Strand,log2 enrichment
GCAGGAAGUAAAAACAAAUGGAAAUGCUUCGGAUAGUGGCAGGGGUGGGGGUUGAAAAGGAAAGGGUGGGAUGGGAGUGGGUAAAGAGUU,2.03
ACCAUGCAGGUGGGCAUCUUUGGGAAGUGGGGCAAGGGGGGGAUAGGUAGGGGGGUAACACUUUGGGAACAGGUGGUCCCAGGUCGUUUC,1.43
UGGGAGGUGGACUUUGUUUAUUUUUUUAGCUCAUUUCCAGGGGUGGGAAUUUUUUUUUAAUAUGUGUCAUGAAUAAAGUUGUUUUUGAAA,-0.448
UGGCCCUGGUGGCAUGCGGGGAGGAAGAGGUGGUCUCAUGGAUCGUGGUGGUCCCGGUGGAAUGUUCAGAGGUGGCCGUGGUGGAGACAG,0.428
UAUCCCCUAUGAGGCACCACGUAAGACCUCCUGCCCUUAGCUCUCUUGCUCACCACCCAAGAACCUCAGGACAGAAGCGAGAGCCCAUUG,2.1
AGUCCUGUGCUACACAUCGUAUGUACCGAAUCGGGGAAAAGGAAAAGGGGAAAAGGGGAAAGUAUUAUGUUACGCCGUUCGGAUCUGCAC,0.0815
UCCUCAAGUCCUGUGCUACACAUCGUAUGUACCGAAUCGGUGGGUGGUGGGGAAAGUAUUAUGUUACGCCGUUCGGAUCUGCACUUCCAG,0.89
UCCUCAAGUCCUGUGCUACACAUCGUAUGUACCGAAUCGGGGUGGUGGUGGAAAGUAUUAUGUUACGCCGUUCGGAUCUGCACUUCCAGC,-0.995
UGUGCUACACAUCGUAUGUACCGAAUCGGGGAAAAAAAGGGAAAAAAAGGGAAAAAAAGGGGAAAGUAUUAUGUUACGCCGUUCGGAUCU,0.491
UAACUUUAGAGGAGGAUCUGAUGGAUAUGGCAGUGGACGUGGAUUUGGGGAUGGCUCUAAUGGGUAUGGAGGAGGACCUGGAGGUGGCAA,-0.207
AGAGAAAAGGAACAGUUCCGUAAGCUCUUUAUUGGUGGCUUAAGCUUUGAAACCACAGAAGAAAGUUUGAGGAACUACUACGAACAAUGG,-3.23

# Block 2
# Target: RING finger protein unkempt homolog, zinc fingers 1-6, GST-SBP tag (UNK, Homo sapiens, UniProt Q9C0B0, residues 30-357)
# Method: RNA Bind-n-Seq
# Molecule type: RNA
# Matrix: in vitro
# Tested at: not given
# Notes: RNA with constant flanks, human and mouse sites, ends assumed
# Relative to: input RNA pool
# Reading: higher = stronger binding
# All sequences stand within: GGGAGUUCUACAGUCCGACGAUC … CAACAGAGGAUUGAGCAUCA
# Construct (chain): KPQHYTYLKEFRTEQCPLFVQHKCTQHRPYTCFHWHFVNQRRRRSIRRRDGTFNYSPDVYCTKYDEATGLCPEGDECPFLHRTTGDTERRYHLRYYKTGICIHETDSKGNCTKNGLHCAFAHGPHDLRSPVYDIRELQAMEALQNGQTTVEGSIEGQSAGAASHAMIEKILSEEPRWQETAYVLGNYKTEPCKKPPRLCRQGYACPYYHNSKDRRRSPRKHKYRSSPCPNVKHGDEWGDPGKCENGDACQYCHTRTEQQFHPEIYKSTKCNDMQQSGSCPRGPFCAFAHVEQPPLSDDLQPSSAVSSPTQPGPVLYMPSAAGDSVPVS
Strand,bound/input enrichment
CUGGCAAUCCAGUGCCGUGCUGACCAGUCUUUCACUUCUCCACCCCCGAGAGAUUUCUUAUUAGAUAUUGCACGACAAAGAAAUCAAACCCCUUUGCCACUGAUCAAGCCAUAUUCAGGU,0.263 ratio
CGUCCUUGUUAAGCACUGCUUUCCAGACCGUGUCUGACUUAGUCAACCUAGAGGAUUUUAUAGUUUCACUCUAAUGAAGUCCUGAUUAACACAGAGCAGCGGAGCAGCGGUCCCUCCCCU,0.41 ratio
GAGCGGUCCCAGGGGUCCACCAGCAACAGUGACUGGAUGAAAAACCUCAUCUCCCCUGACCUGGGGGUUGUGUUUCUCAACGUACCUGAAAACCUGAAAGACCCAGAACCCAACAUCAAG,0.0803 ratio
UGGGCGCAGCAGUGUGGGGACACUGCUCUUGGAUGCCCUGGCUUUCUCCUGAAAUCGUGCCUUAGCUUCAGUCUUGCAGCUAUCAGGAUGGGGUGAAGCUGUGGUGCUGCCCCCCACCCU,0.129 ratio
GACUUUUAAUAAUGUUUUUGAAUUUCGUAUUCUUUCAUUCCACUGUGUAAAGUGCUAGACAUUUUCCAAUUUAAAAUUUUGCUUUUUAUCCUGGCACUGGCAAAAAGAACUGUGAAAGUG,5.71 ratio
ACAGCCCUUGCCUGGAGCCCAGGAACCCCAUCCUUGCUUCAUCUCAGUUCUUCAUGGGCUUCACUCUUCCCACUCACGGAAGGGAGGUAGCUCAGGGACCUCCACUGUGGGACCCUUGAG,0.124 ratio
GGGUCUACUAUAUGUAAAAAGUAUACAUAUAAAAAUAUAUAUAUAUAAUGUUUGUUUAAAAUAGAGUAUUUUUAUUUCCUCCCUAACUCAUCAUUGAAGAGGUGAUAUUACACUUCAGAU,4.66 ratio
UAGCGCCAUCUCAAAGGCCAUCUUUCCACCCUGGCAUGUGGCUAGGGUGUGUCCUGGAUCCAUAGGGUGGGAGGAGGAGCCAGAUGGGUUUAUGAUACAUGGCUGUUUGAGAGUUCCCAU,0.0646 ratio
GAGAUACCAGGACAGAGUCAUUGCUACAUAUGUUUGACCUGAUCUAGCCUUUUCCAAAUGAAUAGCCUCAACUCUGUUGUAAAGAAAGUUUUAUUUGUAUUUUACUACUAUUGGGUCAAU,1.87 ratio
UGUGGCUUUAACAUUUUCUGCAACUAUUUAUGAAGACUUCUGUUAUACAUGUAAUAAAUAUAUAGAAAAAGCACAUACUUCGCAAGUGAGCUUUAUGGUUCUGUGUGUGUUGGGGGUGGG,1.22 ratio
AAUAAAGCUGUUGUGUUGCGGGGCCAUGAAUCUGAAGUUUUUAUCUGUGCCUGGAACCCUGUUAGUGAUCUCCUAGCAUCAGGGUCUGGAGACUCAACAGCAAGAAUAUGGAAUCUUAGU,0.507 ratio

# Block 3
# Target: Centromere-binding protein 1, full length, His-tagged (CBF1, Saccharomyces cerevisiae, UniProt P17106, residues 1-351)
# UniProt P17106, sequence (whole entry, looked up): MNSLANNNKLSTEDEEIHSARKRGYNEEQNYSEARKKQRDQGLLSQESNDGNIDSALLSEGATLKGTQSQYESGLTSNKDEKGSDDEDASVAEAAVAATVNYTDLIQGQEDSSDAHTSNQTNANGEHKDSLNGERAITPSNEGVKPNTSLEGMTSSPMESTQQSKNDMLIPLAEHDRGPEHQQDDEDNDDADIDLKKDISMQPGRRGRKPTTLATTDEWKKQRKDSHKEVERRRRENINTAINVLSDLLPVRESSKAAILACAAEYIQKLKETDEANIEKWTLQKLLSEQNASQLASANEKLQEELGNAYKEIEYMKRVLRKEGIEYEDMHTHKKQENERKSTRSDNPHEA
# Method: competition protein-binding microarray
# Molecule type: double-stranded DNA, one strand shown
# Matrix: in vitro
# Tested at: 2 µM
# Notes: whole 60-bp probe, lowest competitor level
# Together with: Pho4 competitor, 0.05 µM
# Reading: higher = stronger binding
# All sequences stand within: … GTCTTGATTCGCTTGACGCTGCTG
Strand,fluorescence intensity [a.u.]
TTTTAGAGGAAAGAGAACGTGGTGAAAAAGTCAAAA,105
TGCGCAACAACTTGCTAAGTGGGTGTATGTCTAGAA,62.3
GTCTTGTCTCATTGCAGAGTGGGTGTCCCCACTTCA,80.3
CGGCCGGAGTTTTATCACATGGATGTTTCTTATTCC,248
GTCCAGTGCTCATCGCACGTGCATCTGGATTTTGTG,1220
ATGAAACGGAGCAGTCATATGATCAAAATACAGAAT,788
GTCTTGTCTCATTGAAGTGTGGGTGTCCCCACTTCA,71.7
AAATTACTAAGTTGGGCTGTGGGTGACGCCGTATGA,60.3
GACCAGAAACGTCGTCATGTGGCCAAAGTCGGGCCA,240
GTAACGAAGCTTACCAGCATGATAATACCGTAAATC,77.1
ATTGAAGGTGTAGAGGCCGTGACGAATTGATGTGGT,84.8
AGACCAGATGGTCTTCACGTTATCAATGTTGGTAAG,134
ATACGCCTTTTCGATGGCGTGCTTTTTAATATGTCT,102
CCACCGCCGGATGCCTACGTGGTGAAGGGAGACAAA,53
AAATTACTAAGTTGGCGCGTGGGTGACGCCGTATGA,64.8
GCTGGCCTCGCCCGTCACAAAAGAAATGAGCTCACT,66.9
GACAAGCATTTCGACCACGTTTTGTACAAGGAATCC,169
AAAGCGGTAATTTGCTTCGTGGGTGCAGATATCTAT,78.1
GAGCAGAGTGAAAAGCACGCAAAGAGACATAGTCGG,53.5
GTCTTGTCTCATTGATTAGTGGGTGTCCCCACTTCA,75.3
CCAAGTTAGAAGAAACATGTGACGCCATTTCTGCGG,1100
AAAGCGGTAATTTGCACTGTGGGTGCAGATATCTAT,85.5

# Block 4
# Target: Histone acetyltransferase KAT6A, both winged helices, GST fusion (KAT6A, Homo sapiens, UniProt Q92794, residues 1-181)
# Method: protein binding microarray
# Molecule type: double-stranded DNA, one strand shown
# Matrix: in vitro
# Tested at: not given
# Notes: 8-mer, flanks averaged, mean of 2 arrays, mostly near background
# Relative to: not given
# Reading: higher = stronger binding
# Construct (chain): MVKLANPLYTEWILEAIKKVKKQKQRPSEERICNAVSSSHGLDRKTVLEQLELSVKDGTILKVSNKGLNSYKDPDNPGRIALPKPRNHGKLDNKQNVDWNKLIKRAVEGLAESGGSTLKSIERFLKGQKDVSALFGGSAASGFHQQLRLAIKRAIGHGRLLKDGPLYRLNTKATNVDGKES
Strand,E-score
AGACATGG,-0.0346
CTAAGCTC,-0.189
AGCACCAC,-0.148
ATATGGAC,-0.126
CCACCTAG,-0.0654
AGGACAGG,-0.205
ACCGCCAC,0.0827
ACTAATTG,-0.101
AGTCCGTG,0.13
GATCTCAC,0.0189
GGTATGAC,0.084
GGGTGTAA,0.0503
AAACGGCC,0.256
CATATGAG,-0.0853
CTGAAGGA,-0.0949
AATTAACT,-0.123
TAACTCGA,-0.0619
GGTGAAGA,-0.0463
ATTGGGTC,-0.0584
TAATAGTA,-0.0652
CGGGCAGA,0.208
AAGGTCTG,-0.122
AAACCCGA,0.212

# For quick reference, copied from above (block 4):
Strand,E-score
GATCTCAC,0.0189
CTGAAGGA,-0.0949
CTAAGCTC,-0.189
CCACCTAG,-0.0654
ACCGCCAC,0.0827
AGGACAGG,-0.205
ATTGGGTC,-0.0584
TAATAGTA,-0.0652
